# Published values from different studies.
# Every numbered part comes from another study and shows a few of its results, in no order.

# Block 1
# Target: Interferon regulatory factor 7, full length, phosphomimetic (IRF7, Homo sapiens, UniProt Q92985, residues 1-503, S471D/S472D/S475D/S476D/S477D/S483D/S484D/S487D)
# Technique: protein-binding microarray
# Form: double-stranded DNA, one strand shown
# Matrix: in vitro
# Tested at: 2200 nM top
# Notes: 60-bp whole probe
# Added: salmon DNA 0.4 mg/ml
# Relative to: random background probes
# Reading: higher = stronger binding
# Construct (chain): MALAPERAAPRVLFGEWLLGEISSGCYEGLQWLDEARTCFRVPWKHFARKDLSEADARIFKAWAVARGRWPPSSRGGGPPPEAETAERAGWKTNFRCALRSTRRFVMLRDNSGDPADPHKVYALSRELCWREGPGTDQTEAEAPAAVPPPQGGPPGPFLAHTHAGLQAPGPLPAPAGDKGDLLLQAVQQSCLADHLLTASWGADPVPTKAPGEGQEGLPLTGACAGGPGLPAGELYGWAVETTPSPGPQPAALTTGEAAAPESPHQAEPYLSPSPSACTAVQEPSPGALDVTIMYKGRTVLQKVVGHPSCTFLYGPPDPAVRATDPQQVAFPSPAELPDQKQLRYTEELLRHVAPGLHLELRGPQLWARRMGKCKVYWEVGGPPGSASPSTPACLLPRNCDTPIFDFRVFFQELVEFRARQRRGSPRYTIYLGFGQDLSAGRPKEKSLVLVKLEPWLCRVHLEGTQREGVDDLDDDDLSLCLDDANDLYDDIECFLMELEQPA
Sequence,fitted relative affinity
GCCTAGCACACCTGTATATCTTCAGCGGGGTGCTAGGTCTTGATTCGCTTGACGCTGCTG,0.641 z-score
GCCTAGCACTCATTCCTCTCACCTCGGACTGTGCTAGTCTTGATTCGCTTGACGCTGCTG,2.34 z-score
GCCTAGCACTCAGCTTTCCTTTATGTACTGTGCTAGGTCTTGATTCGCTTGACGCTGCTG,2.32 z-score
GCCTAGCACTTAGGACTGGATCTCGGTTAGTGCTAGGTCTTGATTCGCTTGACGCTGCTG,0.158 z-score

# Block 2
# Target: Centromere-binding protein 1, full length, His-tagged (CBF1, Saccharomyces cerevisiae, UniProt P17106, residues 1-351)
# Chain of UniProt P17106 (whole entry, looked up): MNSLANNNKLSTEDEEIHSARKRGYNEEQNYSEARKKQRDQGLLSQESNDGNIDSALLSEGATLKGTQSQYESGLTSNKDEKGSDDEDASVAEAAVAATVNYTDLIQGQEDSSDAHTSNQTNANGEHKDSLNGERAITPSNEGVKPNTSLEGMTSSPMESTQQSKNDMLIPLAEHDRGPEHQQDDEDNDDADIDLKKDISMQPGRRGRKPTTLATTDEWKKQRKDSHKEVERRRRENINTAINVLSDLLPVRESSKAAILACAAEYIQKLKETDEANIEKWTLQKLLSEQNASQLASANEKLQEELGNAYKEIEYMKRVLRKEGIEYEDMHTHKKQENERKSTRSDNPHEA
# Technique: competition protein-binding microarray
# Form: double-stranded DNA, one strand shown
# Matrix: in vitro
# Tested at: 2 µM
# Notes: whole 60-bp probe, lowest competitor level
# Added: Pho4 competitor, 0.05 µM
# Reading: higher = stronger binding
# All sequences stand within: … GTCTTGATTCGCTTGACGCTGCTG
Sequence,fluorescence intensity
CGCCATTATAGTGTAAACGTGAGGTACGGATATCGA,115 a.u.
GGTAACACCTTCGAAACCGTGACTCGTCTTGACAGC,124 a.u.
AAATTACTAAGTTTTCACGTGCACTACCCCGTATGA,1260 a.u.
CTAATACCCGGAAGTCGCGTGATGGTTTTTTTTTTC,462 a.u.
AAATTACTAAGTTGTGGCGTGGGTGACGCCGTATGA,61.5 a.u.

# Block 3
# Target: Histone acetyltransferase KAT6A, winged helix 2, GST fusion (KAT6A, Homo sapiens, UniProt Q92794, residues 85-181)
# Technique: protein binding microarray
# Form: double-stranded DNA, one strand shown
# Matrix: in vitro
# Tested at: not given
# Notes: 8-mer, flanks averaged, mean of 2 arrays, mostly near background
# Relative to: not given
# Reading: higher = stronger binding
# Residues (chain): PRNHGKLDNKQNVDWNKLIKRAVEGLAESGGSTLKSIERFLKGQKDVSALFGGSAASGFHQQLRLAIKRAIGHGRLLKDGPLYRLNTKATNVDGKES
Sequence,E-score
AGCAAGTA,-0.0578
GCTTTTCC,0.0628
GCTAACCC,-0.0173
GGGTAGCA,0.175
CTCCTCAA,-0.041

# Further values, each from its own experiment
Molecule,target,assay,system,conditions,how to read,endpoint,result
"PhoQ, residues 284 288 289 292 302 303 SVTLVV","PhoP, residues 12 14 15 18 19 AGCRL (Escherichia coli, UniProt P23836)","Sort-seq, refers to: YFP reporter",E. coli,"PhoQ-PhoP variant library, added: 10 µM Mg2+","relative to: high Mg2+ state, higher = stronger signaling",fold induction,1.22

# For quick reference, copied from above (block 2):
Sequence,fluorescence intensity
CGCCATTATAGTGTAAACGTGAGGTACGGATATCGA,115 a.u.
AAATTACTAAGTTTTCACGTGCACTACCCCGTATGA,1260 a.u.
